Measurements of several laboratories.
A part holds a random share of what one study measured.

Block 1
Target: Histone acetyltransferase KAT6A, winged helix 1, GST fusion (KAT6A, Homo sapiens, UniProt Q92794, residues 1-85)
Method: protein binding microarray
Molecule type: double-stranded DNA, one strand shown
Sample: in vitro
Concentration: not given
Setting: 8-mer, flanks averaged, mean of 2 arrays, mostly near background
Baseline: not given
Reading: higher = stronger binding
Endpoint: E-score
Residues (chain): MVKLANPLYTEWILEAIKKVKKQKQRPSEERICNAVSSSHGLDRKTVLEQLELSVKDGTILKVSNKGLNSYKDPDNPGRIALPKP
CTAGATAG: -0.11
AATATTAT: -0.08
AGCCCGAA: 0.00308
AAACCGAC: 0.0823
AACATCTA: -0.0886
CCGCAGCC: 0.152
AATTGGCA: -0.145
CTGAGTCC: -0.0653

Block 2
Target: Interferon regulatory factor 5, full length, phosphomimetic (IRF5, Homo sapiens, UniProt Q13568-2, residues 1-514, K96S/S451D/S453D/S456D/S462D)
Method: protein-binding microarray
Molecule type: double-stranded DNA, one strand shown
Sample: in vitro
Concentration: 250 nM
Setting: 60-bp whole probe
With: salmon DNA 0.4 mg/ml
Baseline: random background probes
Reading: higher = stronger binding
Endpoint: log fluorescence
Constant ends, left off below: GCCTAGCAC … GTCTTGATTCGCTTGACGCTGCTG
TCTCTGCTACCCTTTGAAAGTGTGCTA: 0.52 z-score
GACGGTTTCGGACGGGGGACGTGCTAG: 4.4 z-score
GACGATATCGGGACTTGAGACGTGCTA: 0.757 z-score
TCTCTTTCCACTTGTCTTTTCGTGCTA: 2.37 z-score
CACTTTTCCTACATCAGCTGGTGCTAG: 1.09 z-score
GACGGTATCCTACTTCTGACGTGCTAG: -0.19 z-score
TTAGGTATCGGTTTCGGTCAGTGCTAG: 10.5 z-score
TTAGATATCAGTTTCGAGTAGTGCTAG: 7.69 z-score

Block 3
Target: Prothrombin, mature alpha-thrombin (F2, Homo sapiens, UniProt P00734)
Method: aptamer microarray, sandwich
Molecule type: DNA with 2'F-ANA
Sample: in vitro
Concentration: 200 nM
Setting: whole 15-mer aptamer, many near background
With: Cy3 exosite-II aptamer, 400 nM
Reading: higher = stronger binding
Endpoint: mean fluorescence intensity
Oligonucleotide: GGTTGGTGTGGTTGG
2'F-ANA at 1 3 5 6 7 9 12 15: 118 a.u.
2'F-ANA at 2 3 4 8 9 11 12: 811 a.u.
2'F-ANA at 3 4 7 9 11 12 13 14 15: 299 a.u.
2'F-ANA at 1 4 7 8 9 12 13 14: 185 a.u.
2'F-ANA at 1 3 8 14: 118 a.u.
2'F-ANA at 2 3 9 10 12 13 14: 317 a.u.
2'F-ANA at 1 2 4 5 7 8 11 12: 88.9 a.u.

Mixed results
PhoQ, residues 284 288 289 292 302 303 SQSLSM
fold induction (PhoP, residues 12 14 15 18 19 STWGI (Escherichia coli, UniProt P23836); Sort-seq, refers to: YFP reporter; E. coli; PhoQ-PhoP variant library, with: 10 µM Mg2+; baseline: high Mg2+ state, higher = stronger signaling): 0.681

Some of these lines once more (block 3):
2'F-ANA at 1 3 8 14: 118 a.u.
2'F-ANA at 2 3 4 8 9 11 12: 811 a.u.
2'F-ANA at 1 2 4 5 7 8 11 12: 88.9 a.u.
